# Published values from different studies.
# Lines come from different studies, so protocols differ. Numbers after ± are the reported error.
# Mapk1: Mitogen-activated protein kinase 1 (Mapk1, Rattus norvegicus, UniProt P63086)
# Chain of UniProt P63086 (whole entry, looked up): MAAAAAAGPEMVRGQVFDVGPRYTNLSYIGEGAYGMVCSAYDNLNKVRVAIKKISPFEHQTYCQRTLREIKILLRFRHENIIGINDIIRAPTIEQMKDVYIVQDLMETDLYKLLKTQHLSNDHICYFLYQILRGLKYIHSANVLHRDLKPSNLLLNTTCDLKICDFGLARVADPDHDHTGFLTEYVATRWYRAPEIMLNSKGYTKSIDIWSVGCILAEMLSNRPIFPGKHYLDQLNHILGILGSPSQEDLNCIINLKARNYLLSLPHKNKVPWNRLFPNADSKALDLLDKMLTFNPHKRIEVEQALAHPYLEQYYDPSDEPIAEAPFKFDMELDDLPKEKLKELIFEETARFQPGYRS
# Chain of UniProt Q9UNU6 (whole entry, unmodified, looked up): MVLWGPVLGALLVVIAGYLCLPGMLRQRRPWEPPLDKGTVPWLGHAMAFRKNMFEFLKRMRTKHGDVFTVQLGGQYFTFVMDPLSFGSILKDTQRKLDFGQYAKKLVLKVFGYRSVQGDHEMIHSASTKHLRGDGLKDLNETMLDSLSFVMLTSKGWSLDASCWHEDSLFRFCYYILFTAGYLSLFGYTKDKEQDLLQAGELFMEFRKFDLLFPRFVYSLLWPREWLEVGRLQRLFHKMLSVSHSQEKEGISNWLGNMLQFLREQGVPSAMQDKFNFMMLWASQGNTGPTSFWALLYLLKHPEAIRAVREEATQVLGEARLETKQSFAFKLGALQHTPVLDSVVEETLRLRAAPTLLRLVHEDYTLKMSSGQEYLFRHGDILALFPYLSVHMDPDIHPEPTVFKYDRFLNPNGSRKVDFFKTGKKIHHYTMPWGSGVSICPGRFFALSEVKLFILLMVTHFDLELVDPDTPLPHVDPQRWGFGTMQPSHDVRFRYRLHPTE
# Chain of UniProt P00915 (whole entry, looked up): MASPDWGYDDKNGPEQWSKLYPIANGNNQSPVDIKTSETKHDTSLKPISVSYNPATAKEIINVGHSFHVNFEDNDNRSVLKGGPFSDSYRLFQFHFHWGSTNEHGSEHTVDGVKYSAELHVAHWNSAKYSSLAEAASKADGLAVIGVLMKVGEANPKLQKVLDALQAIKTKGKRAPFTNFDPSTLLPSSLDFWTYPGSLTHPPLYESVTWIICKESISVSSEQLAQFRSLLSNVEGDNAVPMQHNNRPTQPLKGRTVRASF
# Chain of UniProt P00157 (whole entry, looked up): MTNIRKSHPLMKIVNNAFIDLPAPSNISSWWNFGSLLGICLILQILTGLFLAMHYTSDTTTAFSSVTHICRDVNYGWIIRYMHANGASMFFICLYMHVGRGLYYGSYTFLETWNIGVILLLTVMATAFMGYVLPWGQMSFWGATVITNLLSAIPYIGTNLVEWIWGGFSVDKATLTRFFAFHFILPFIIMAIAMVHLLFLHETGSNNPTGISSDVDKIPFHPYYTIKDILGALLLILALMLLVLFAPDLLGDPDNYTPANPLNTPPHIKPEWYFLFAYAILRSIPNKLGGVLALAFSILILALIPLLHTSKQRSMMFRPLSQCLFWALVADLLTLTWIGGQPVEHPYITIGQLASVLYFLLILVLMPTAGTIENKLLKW
# Chain of UniProt Q9HB89 (whole entry, looked up): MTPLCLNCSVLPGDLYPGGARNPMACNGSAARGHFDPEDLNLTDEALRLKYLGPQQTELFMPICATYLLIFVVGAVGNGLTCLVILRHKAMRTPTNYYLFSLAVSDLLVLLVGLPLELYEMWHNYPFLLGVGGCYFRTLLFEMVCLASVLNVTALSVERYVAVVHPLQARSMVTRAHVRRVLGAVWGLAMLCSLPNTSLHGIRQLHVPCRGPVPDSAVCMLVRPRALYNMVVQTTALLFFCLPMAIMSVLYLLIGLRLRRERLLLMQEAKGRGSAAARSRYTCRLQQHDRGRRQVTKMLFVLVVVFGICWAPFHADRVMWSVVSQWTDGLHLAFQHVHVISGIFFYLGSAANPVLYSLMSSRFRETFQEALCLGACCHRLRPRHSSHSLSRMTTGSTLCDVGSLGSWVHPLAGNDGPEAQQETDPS
# Chain of UniProt P05177 (whole entry, looked up): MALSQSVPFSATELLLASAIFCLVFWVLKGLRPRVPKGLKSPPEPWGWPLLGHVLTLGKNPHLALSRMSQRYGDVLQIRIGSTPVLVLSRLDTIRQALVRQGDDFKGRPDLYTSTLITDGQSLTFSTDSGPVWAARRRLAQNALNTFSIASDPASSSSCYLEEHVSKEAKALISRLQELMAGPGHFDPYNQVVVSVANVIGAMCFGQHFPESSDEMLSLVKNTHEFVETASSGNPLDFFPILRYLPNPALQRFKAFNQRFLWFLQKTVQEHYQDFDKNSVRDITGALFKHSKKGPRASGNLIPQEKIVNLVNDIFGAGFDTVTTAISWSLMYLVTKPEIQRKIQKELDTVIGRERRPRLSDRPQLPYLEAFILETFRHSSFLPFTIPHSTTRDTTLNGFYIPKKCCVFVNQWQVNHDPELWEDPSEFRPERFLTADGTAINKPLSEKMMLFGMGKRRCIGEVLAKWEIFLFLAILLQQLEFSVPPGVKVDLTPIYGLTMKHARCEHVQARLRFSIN
# Chain of UniProt P35354 (whole entry, looked up): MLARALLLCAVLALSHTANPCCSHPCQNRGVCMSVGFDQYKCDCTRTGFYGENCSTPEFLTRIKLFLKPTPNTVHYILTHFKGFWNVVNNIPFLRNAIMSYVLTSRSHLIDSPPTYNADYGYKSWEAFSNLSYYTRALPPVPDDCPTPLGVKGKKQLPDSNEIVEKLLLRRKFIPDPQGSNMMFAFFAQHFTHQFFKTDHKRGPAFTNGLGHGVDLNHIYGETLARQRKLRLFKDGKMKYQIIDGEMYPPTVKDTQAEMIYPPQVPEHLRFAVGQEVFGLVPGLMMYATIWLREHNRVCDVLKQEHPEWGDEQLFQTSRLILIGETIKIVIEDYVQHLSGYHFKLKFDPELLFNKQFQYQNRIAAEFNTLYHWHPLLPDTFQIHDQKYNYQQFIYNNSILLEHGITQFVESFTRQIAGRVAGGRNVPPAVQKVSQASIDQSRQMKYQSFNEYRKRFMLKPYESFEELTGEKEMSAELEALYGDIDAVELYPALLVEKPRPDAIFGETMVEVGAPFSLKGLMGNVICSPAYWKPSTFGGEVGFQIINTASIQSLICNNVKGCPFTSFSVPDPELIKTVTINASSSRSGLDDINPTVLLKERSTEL
SMILES,tested on,test,system,setting,measurement,value
CC(C)C[C@H](NC(=O)[C@H](CC(=O)O)NC(=O)[C@H](C)N)C(=O)N1CCC[C@H]1C(=O)N[C@@H](Cc1ccccc1)C(=O)N[C@@H](C)C(=O)N[C@@H](Cc1ccccc1)C(N)=O,"Transcriptional regulator PlcR (Bacillus thuringiensis, UniProt A0ACM8Q0N2)","reporter gene, inhibitor, lacZ reporter",407 Cry−,,IC50,1.7 ± 0.111 µM
Cc1ccc(N2CC3CC(C2)N3)cc1C(=O)NC1(c2ccc3c4c(cccc24)C(=O)N3C)CC1,"Cytochrome P450 1A2 (CYP1A2, Homo sapiens, UniProt P05177)","enzyme activity, inhibitor",,,IC50,14.8 µM
O=C(O)CCn1c(=O)oc2cc(Cl)c(Cl)cc21,"Prostaglandin G/H synthase 2 (PTGS2, Homo sapiens, UniProt P35354)",inhibitor,,,IC50,> 100 µM
CCCCCCCCCCCCCCCCCC(=O)NC[C@H]1CC[C@H](C(=O)N[C@@H](CCC(=O)NCCCOCCOCCOCCCNC(=O)COCC(=O)N[C@@H](Cc2ccc(O)cc2)C(=O)NC(C)(Cc2ccccc2)C(=O)N[C@@H](CC(C)C)C(=O)N[C@@H](CCCC)C(=O)N[C@@H](CCCNC(=N)N)C(=O)N2CCC[C@H]2C(=O)N[C@@H](CCCNC(=N)NC)C(=O)N[C@@H](CC(N)=O)C(N)=O)C(=O)O)CC1 (stereo partly drawn),"Neuromedin-U receptor 1 (NMUR1, Homo sapiens, UniProt Q9HB89)","ligand displacement, radioligand",,,IC50,0.00295 µM
O=C1NC2(CC2)COc2ncc(F)cc2[C@H]2COCCN2c2ccn3ncc1c3n2,,,"Sprague-Dawley rat, male, thymus","oral, 2.5 mg/kg/day, 4 weeks dosing, end of recovery",organ-to-body weight ratio,0.088 ± 0.012%
COc1ccccc1-n1c(SCC(=O)Nc2ccccc2F)nc2cccnc21,"Dihydroorotate dehydrogenase (quinone), mitochondrial (PFF0160c, Plasmodium falciparum, UniProt Q08210, E182D)","enzyme activity, inhibitor, absorbance",,,IC50,9.97 µM
O=S(=O)(N/N=C/c1ccc(OS(=O)(=O)c2ccc(Cl)cc2)cc1)c1cc(Cl)ccc1Cl,"Carbonic anhydrase 1 (CA1, Homo sapiens, UniProt P00915)","enzyme activity, inhibitor, absorbance",,,IC50,0.0228 µM
O=S(=O)(F)c1cccc(S(=O)(=O)Nc2ccc(C3CC3)cc2F)c1,"GTPase KRas, with RAF (KRAS, Homo sapiens, UniProt P01116)","RAF-KRAS interaction, inhibitor, NanoBRET",HEK293T,24 h,IC50,29 ± 9 µM
CC[C@H](C)[C@H](NC(=O)[C@@H]1CCCN1C(=O)[C@@H]1CCCN1C(=O)[C@@H]1CCCN1C(=O)[C@@H]1CCCN1C(=O)[C@@H](NC(=O)[C@H](CCCNC(=N)N)NC(=O)[C@H](CO)NC(=O)[C@H](CCCCN)NC(=O)[C@H](CCCCN)NC(=O)[C@H](C)NC(=O)[C@@H](N)Cc1ccc(O)cc1)C(C)C)C(=O)N[C@@H](CC(C)C)C(=O)N[C@@H](CC(C)C)C(=O)N[C@@H](CO)C(=O)N[C@@H](CCCNC(=N)N)C(=O)O,Mapk1,"enzyme activity, inhibitor, fluorescence",,pH 7.4,IC50,54.3 µM
O=c1cc(-c2ccc(Cc3ccc(F)cc3)cc2)[nH]c2ccccc12,"MT-CYB (Bos taurus, UniProt P00157)","enzyme activity, inhibitor",,,IC50,0.19 µM
CC(C)C[C@H](NC(=O)CNC(=O)[C@H](CCCNC(=N)N)NC(=O)[C@H](CCCNC(=N)N)NC(=O)[C@H](C)NC(=O)[C@H](CS)NC(=O)[C@H](CC(C)C)NC(=O)[C@H](C)NC(=O)[C@@H](N)Cc1ccc(O)cc1)C(=O)N[C@@H](Cc1ccc(O)cc1)C(=O)N[C@@H](CS)C(=O)N[C@@H](CC(C)C)C(=O)N[C@@H](CO)C(=O)N[C@@H](CC(C)C)C(=O)N[C@@H](CC(=O)O)C(=O)N[C@@H](Cc1c[nH]cn1)C(=O)O,Mapk1,"enzyme activity, inhibitor, fluorescence",,pH 7.4,IC50,47 µM
C[C@]12C(c3cccnc3)=C[C@H]3[C@@H](CCC4=C[C@H](O)CC[C@@]43C)[C@@H]1CC[C@@H]2O,"7-alpha-hydroxycholest-4-en-3-one 12-alpha-hydroxylase (Homo sapiens, UniProt Q9UNU6, W281F)",enzyme activity,,"W281F mutant, added: 7α-hydroxycholest-4-en-3-one",IC50,10.2 µM

# Some of these lines once more:
SMILES,tested on,test,system,setting,measurement,value
O=S(=O)(F)c1cccc(S(=O)(=O)Nc2ccc(C3CC3)cc2F)c1,"GTPase KRas, with RAF (KRAS, Homo sapiens, UniProt P01116)","RAF-KRAS interaction, inhibitor, NanoBRET",HEK293T,24 h,IC50,29 ± 9 µM
